{"data": "Measurements from different studies", "note": "Each numbered part is a random draw from the data of one study; scales do not carry over between parts. Values joined by “and” are separate records of one study, mostly repeats; a detail may differ.", "chain of UniProt Q9HCP0 (whole entry, looked up)": "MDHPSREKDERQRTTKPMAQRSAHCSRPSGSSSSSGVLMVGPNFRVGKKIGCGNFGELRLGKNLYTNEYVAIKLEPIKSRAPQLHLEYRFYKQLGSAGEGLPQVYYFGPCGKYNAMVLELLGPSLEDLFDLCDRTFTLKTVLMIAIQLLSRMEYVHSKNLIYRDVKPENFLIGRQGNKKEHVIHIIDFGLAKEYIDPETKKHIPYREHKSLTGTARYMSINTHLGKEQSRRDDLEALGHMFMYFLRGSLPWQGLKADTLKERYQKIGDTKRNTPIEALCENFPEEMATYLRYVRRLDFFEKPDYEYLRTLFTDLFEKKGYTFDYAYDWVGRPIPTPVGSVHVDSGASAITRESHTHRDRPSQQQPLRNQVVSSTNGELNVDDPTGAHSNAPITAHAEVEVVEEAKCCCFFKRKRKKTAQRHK", "chain of UniProt O60674 (whole entry, looked up)": "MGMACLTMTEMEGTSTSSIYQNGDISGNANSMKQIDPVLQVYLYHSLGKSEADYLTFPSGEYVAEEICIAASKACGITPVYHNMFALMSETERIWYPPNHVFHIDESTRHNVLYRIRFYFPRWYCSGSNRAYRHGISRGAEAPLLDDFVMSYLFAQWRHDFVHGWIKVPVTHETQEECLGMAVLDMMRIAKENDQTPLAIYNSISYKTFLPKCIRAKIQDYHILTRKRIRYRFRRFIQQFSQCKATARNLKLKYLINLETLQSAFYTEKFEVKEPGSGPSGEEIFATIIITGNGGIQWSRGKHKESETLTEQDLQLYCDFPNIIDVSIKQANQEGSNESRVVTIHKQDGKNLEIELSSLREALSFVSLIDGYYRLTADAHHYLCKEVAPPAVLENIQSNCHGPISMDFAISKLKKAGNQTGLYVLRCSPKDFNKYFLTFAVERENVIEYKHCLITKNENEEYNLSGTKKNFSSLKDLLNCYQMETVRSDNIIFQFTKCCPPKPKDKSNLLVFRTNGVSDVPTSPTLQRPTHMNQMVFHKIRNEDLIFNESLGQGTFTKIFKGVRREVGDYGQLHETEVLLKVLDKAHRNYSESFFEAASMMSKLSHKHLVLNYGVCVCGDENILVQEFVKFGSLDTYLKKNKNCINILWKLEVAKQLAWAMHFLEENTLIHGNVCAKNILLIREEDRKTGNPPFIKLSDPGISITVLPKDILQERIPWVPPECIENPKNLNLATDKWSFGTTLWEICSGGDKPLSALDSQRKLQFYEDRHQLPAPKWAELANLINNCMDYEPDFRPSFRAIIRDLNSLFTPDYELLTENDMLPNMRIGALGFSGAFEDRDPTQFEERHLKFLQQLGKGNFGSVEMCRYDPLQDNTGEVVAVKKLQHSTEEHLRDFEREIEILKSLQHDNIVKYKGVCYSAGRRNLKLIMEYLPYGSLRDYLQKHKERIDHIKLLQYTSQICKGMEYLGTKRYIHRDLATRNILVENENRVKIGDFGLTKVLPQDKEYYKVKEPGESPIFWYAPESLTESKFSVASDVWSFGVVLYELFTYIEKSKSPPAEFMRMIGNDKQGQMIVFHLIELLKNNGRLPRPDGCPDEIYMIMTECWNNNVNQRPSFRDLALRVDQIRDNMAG"}
{"data": "Study 1", "SMILES": "CNc1ncc2cc(-c3cc(OC)cc(OC)c3Cl)c(=O)n(CCc3ccc(NC(=O)C(C#N)=CC(C)(C)N4CCOCC4)cc3)c2n1", "effect on": "kinase activity"}
{"target": "PRKD1 (Homo sapiens, UniProt Q15139)", "concentration": "0.1 µM", "inhibition": "0%"}
{"target": "JAK2 (Homo sapiens, UniProt O60674)", "concentration": "0.1 µM", "inhibition": "-1%"}
{"target": "JAK1 (Homo sapiens, UniProt P23458)", "concentration": "1 µM", "inhibition": "0%"}
{"target": "CSNK1G1 (Homo sapiens, UniProt Q9HCP0)", "concentration": "1 µM", "inhibition": "2%"}
{"target": "PAK5 (Homo sapiens, UniProt Q9P286)", "concentration": "1 µM", "inhibition": "4%"}
{"target": "TYRO3 (Homo sapiens, UniProt Q06418)", "concentration": "1 µM", "inhibition": "2%"}
{"target": "FRK (Homo sapiens, UniProt P42685)", "concentration": "0.1 µM", "inhibition": "5%"}
{"target": "ITK (Homo sapiens, UniProt Q08881)", "concentration": "1 µM", "inhibition": "0%"}
{"target": "Tyrosine-protein kinase Lyn, isoform A (LYN, Homo sapiens, UniProt P07948)", "concentration": "0.1 µM", "inhibition": "4%"}
{"target": "BRAF (Homo sapiens, UniProt P15056)", "concentration": "1 µM", "inhibition": "0%"}
{"target": "DYRK1B (Homo sapiens, UniProt Q9Y463)", "concentration": "1 µM", "inhibition": "8%"}
{"target": "KDR (Homo sapiens, UniProt P35968)", "concentration": "0.1 µM", "inhibition": "44%"}
{"target": "TAOK2 (Homo sapiens, UniProt Q9UL54)", "concentration": "1 µM", "inhibition": "23%"}
{"target": "RPS6KA6 (Homo sapiens, UniProt Q9UK32)", "concentration": "0.1 µM", "inhibition": "0%"}
{"target": "DYRK3 (Homo sapiens, UniProt O43781)", "concentration": "0.1 µM", "inhibition": "-6%"}
{"target": "MAPK1 (Homo sapiens, UniProt P28482)", "concentration": "0.1 µM", "inhibition": "-3%"}
{"target": "PI4KB (Homo sapiens, UniProt Q9UBF8)", "concentration": "0.1 µM", "inhibition": "0%"}
{"target": "PIK3CD (Homo sapiens, UniProt O00329)", "concentration": "0.1 µM", "inhibition": "-6%"}
{"target": "STK26 (Homo sapiens, UniProt Q9P289)", "concentration": "0.1 µM", "inhibition": "-3%"}
{"target": "CAMK1D (Homo sapiens, UniProt Q8IU85)", "concentration": "0.1 µM", "inhibition": "1%"}
{"target": "MELK (Homo sapiens, UniProt Q14680)", "concentration": "1 µM", "inhibition": "16%"}
{"data": "Study 2", "SMILES": "CC[C@@]1(c2cccc(-c3c(F)cncc3OC)c2)C2=C(Nc3n[nH]cc31)[C@H](F)C(C)(C)CC2=O (single isomer, unassigned)", "concentration": "1 µM"}
{"target": "MAPK3 (Homo sapiens, UniProt P27361)", "effect on": "binding", "technique": "competition with immobilised ligand", "remaining binding": "93%"}
{"target": "FLT1 (Homo sapiens, UniProt P17948)", "effect on": "kinase binding", "technique": "KINOMEscan", "baseline": "DMSO control", "remaining binding": "88%"}
{"target": "MAP3K6 (Homo sapiens, UniProt O95382)", "effect on": "kinase binding", "technique": "KINOMEscan", "baseline": "DMSO control", "remaining binding": "66%"}
{"target": "CASK (Homo sapiens, UniProt O14936)", "effect on": "binding", "technique": "competition with immobilised ligand", "remaining binding": "74%"}
{"target": "MAP4K1 (Homo sapiens, UniProt Q92918)", "effect on": "kinase binding", "technique": "KINOMEscan", "baseline": "DMSO control", "remaining binding": "73%"}
{"target": "FLT3 (Homo sapiens, UniProt P36888, D835H)", "effect on": "binding", "technique": "competition with immobilised ligand", "remaining binding": "77%"}
{"target": "IKBKE (Homo sapiens, UniProt Q14164)", "effect on": "kinase binding", "technique": "KINOMEscan", "baseline": "DMSO control", "remaining binding": "93%"}
{"target": "MAP3K11 (Homo sapiens, UniProt Q16584)", "effect on": "binding", "technique": "competition with immobilised ligand", "remaining binding": "92%"}
{"target": "FLT3 (Homo sapiens, UniProt P36888, D835V)", "effect on": "kinase binding", "technique": "KINOMEscan", "baseline": "DMSO control", "remaining binding": "69%"}
{"target": "FLT3 ITD/D835V, human", "technique": "KINOMEscan", "remaining binding": "69%"}
{"target": "NTRK1 (Homo sapiens, UniProt P04629)", "effect on": "kinase binding", "technique": "KINOMEscan", "baseline": "DMSO control", "remaining binding": "64%"}
{"target": "CSNK1G1 (Homo sapiens, UniProt Q9HCP0)", "effect on": "binding", "technique": "competition with immobilised ligand", "remaining binding": "81%"}
{"target": "PIK3CB (Homo sapiens, UniProt P42338)", "effect on": "kinase binding", "technique": "KINOMEscan", "baseline": "DMSO control", "remaining binding": "59%"}
{"target": "Tyrosine-protein kinase ABL1, non-phosphorylated (ABL1, Homo sapiens, UniProt P00519, Q252H)", "effect on": "kinase binding", "technique": "KINOMEscan", "baseline": "DMSO control", "remaining binding": "78%"}
{"target": "CSF1R (Homo sapiens, UniProt P07333)", "effect on": "binding", "technique": "competition with immobilised ligand", "remaining binding": "96%"}
{"target": "Tyrosine-protein kinase ABL1, non-phosphorylated (ABL1, Homo sapiens, UniProt P00519, F317L)", "effect on": "kinase binding", "technique": "KINOMEscan", "baseline": "DMSO control", "remaining binding": "87%"}
{"target": "ULK2 (Homo sapiens, UniProt Q8IYT8)", "effect on": "binding", "technique": "competition with immobilised ligand", "remaining binding": "72%"}
{"target": "STK32B (Homo sapiens, UniProt Q9NY57)", "effect on": "kinase binding", "technique": "KINOMEscan", "baseline": "DMSO control", "remaining binding": "91%"}
{"data": "Study 3", "Compound": "CS(=O)(=O)c1ccc(OC/C(=C/F)CN)cc1.Cl", "Amine oxidase [copper-containing] 3": "Amine oxidase [copper-containing] 3 (Rattus norvegicus, UniProt O08590)", "MAOB": "Amine oxidase [flavin-containing] B (MAOB, Homo sapiens, UniProt P27338)", "MPO": "Myeloperoxidase (MPO, Homo sapiens, UniProt P05164)", "chain of UniProt O08590 (whole entry, looked up)": "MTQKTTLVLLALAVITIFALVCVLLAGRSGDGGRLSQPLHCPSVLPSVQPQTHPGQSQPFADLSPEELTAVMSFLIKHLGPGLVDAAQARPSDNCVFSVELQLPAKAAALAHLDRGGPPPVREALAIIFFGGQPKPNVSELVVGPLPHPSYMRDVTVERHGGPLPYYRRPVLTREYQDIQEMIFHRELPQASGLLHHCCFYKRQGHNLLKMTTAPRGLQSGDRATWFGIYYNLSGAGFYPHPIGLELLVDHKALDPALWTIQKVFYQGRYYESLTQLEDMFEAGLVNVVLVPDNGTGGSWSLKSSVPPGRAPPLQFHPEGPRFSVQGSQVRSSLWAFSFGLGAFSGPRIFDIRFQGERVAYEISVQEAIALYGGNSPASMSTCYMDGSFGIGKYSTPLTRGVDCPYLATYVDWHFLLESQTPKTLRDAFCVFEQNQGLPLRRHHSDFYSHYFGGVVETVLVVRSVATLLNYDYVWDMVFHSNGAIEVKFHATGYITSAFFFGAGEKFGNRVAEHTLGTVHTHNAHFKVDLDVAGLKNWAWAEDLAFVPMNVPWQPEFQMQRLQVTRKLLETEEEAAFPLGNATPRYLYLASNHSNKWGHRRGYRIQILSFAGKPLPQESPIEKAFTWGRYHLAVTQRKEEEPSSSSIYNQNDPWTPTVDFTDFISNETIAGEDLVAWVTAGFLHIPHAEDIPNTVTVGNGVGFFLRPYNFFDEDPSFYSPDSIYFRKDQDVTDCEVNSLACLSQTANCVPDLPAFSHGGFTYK", "chain of UniProt P27338 (whole entry, looked up)": "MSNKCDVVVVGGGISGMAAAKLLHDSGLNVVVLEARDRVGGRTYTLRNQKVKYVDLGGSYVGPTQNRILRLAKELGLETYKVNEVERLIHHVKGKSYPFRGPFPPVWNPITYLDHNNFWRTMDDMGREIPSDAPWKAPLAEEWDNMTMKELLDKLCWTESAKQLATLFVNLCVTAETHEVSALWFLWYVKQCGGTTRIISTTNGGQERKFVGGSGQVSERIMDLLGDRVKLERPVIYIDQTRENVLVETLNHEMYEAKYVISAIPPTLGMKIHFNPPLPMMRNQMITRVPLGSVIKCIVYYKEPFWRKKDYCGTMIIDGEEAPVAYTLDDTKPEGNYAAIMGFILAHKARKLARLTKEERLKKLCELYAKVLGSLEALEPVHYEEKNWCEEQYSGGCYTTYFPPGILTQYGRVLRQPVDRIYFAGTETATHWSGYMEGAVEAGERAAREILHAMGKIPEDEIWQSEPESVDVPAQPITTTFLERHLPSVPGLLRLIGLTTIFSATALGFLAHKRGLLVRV", "chain of UniProt P05164 (whole entry, looked up)": "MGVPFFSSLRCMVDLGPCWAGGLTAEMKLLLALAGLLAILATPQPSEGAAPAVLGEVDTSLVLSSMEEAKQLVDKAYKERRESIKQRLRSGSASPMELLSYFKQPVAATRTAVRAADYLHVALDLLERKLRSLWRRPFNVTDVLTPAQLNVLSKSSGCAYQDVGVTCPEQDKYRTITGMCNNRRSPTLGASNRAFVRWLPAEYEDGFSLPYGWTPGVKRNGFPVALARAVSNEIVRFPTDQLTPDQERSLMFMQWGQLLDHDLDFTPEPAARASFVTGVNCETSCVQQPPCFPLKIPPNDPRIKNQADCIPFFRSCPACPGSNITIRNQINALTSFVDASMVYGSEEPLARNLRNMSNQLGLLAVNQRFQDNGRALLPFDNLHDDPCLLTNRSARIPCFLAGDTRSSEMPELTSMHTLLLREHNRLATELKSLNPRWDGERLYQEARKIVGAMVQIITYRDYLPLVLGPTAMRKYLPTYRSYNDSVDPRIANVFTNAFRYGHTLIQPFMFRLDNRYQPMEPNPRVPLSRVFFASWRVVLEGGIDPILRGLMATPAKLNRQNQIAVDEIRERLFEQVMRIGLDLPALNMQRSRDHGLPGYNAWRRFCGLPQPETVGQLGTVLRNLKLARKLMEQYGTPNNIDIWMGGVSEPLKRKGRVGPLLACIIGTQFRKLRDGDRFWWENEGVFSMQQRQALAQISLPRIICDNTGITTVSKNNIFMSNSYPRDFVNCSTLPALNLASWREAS"}
{"target": "Amine oxidase [copper-containing] 3", "matrix": "rat adipose tissue", "concentration": "0.0002 µM", "inhibition": "-4.89%"}
{"target": "Amine oxidase [copper-containing] 3", "matrix": "rat adipose tissue", "concentration": "1 µM", "inhibition": "100%"}
{"target": "MAOB", "effect on": "enzyme activity", "action": "inhibitor", "concentration": "0.3704 µM", "inhibition": "0.362% and 0.97%"}
{"target": "MAOB", "effect on": "enzyme activity", "action": "inhibitor", "concentration": "41.2 nM", "inhibition": "-1.63% and 0.29% and 7.73%"}
{"target": "Amine oxidase [copper-containing] 3", "matrix": "rat adipose tissue", "concentration": "5.081e-05 µM", "inhibition": "-12.9%"}
{"target": "MPO", "effect on": "enzyme activity", "action": "inhibitor", "technique": "fluorescence", "concentration": "30 µM", "inhibition": "0.133% and -5.1% and -9.45%"}
{"target": "MAOB", "effect on": "enzyme activity", "action": "inhibitor", "concentration": "4.6 nM", "inhibition": "7.96% and 1.49% and 2.81%"}
{"target": "MPO", "effect on": "enzyme activity", "action": "inhibitor", "technique": "fluorescence", "concentration": "4.6 nM", "inhibition": "-10.1% and -1.07% and -1.18%"}
{"data": "Study 4", "Structure (SMILES)": "C[C@@H]1CN(c2ccc(-c3cc(C(=O)NCCOCCOCCOCCOCCNC(=O)/C=C/c4[nH]cc(C(=O)N[C@@H](CC(N)=O)c5ccc(F)c(Cl)c5)c4-c4ccc(Cl)cc4F)ccc3F)cc2NC(=O)c2c[nH]c(=O)cc2C(F)(F)F)C[C@H](C)N1C", "effect on": "thermal unfolding", "technique": "differential scanning fluorimetry", "concentration": "5.5 µM", "direction": "higher = more unfolded", "DCAF1": "DDB1- and CUL4-associated factor 1 (DCAF1, Homo sapiens, UniProt Q9Y4B6)", "WDR5": "WD repeat-containing protein 5 (WDR5, Homo sapiens, UniProt P61964)", "chain of UniProt Q9Y4B6 (whole entry, looked up)": "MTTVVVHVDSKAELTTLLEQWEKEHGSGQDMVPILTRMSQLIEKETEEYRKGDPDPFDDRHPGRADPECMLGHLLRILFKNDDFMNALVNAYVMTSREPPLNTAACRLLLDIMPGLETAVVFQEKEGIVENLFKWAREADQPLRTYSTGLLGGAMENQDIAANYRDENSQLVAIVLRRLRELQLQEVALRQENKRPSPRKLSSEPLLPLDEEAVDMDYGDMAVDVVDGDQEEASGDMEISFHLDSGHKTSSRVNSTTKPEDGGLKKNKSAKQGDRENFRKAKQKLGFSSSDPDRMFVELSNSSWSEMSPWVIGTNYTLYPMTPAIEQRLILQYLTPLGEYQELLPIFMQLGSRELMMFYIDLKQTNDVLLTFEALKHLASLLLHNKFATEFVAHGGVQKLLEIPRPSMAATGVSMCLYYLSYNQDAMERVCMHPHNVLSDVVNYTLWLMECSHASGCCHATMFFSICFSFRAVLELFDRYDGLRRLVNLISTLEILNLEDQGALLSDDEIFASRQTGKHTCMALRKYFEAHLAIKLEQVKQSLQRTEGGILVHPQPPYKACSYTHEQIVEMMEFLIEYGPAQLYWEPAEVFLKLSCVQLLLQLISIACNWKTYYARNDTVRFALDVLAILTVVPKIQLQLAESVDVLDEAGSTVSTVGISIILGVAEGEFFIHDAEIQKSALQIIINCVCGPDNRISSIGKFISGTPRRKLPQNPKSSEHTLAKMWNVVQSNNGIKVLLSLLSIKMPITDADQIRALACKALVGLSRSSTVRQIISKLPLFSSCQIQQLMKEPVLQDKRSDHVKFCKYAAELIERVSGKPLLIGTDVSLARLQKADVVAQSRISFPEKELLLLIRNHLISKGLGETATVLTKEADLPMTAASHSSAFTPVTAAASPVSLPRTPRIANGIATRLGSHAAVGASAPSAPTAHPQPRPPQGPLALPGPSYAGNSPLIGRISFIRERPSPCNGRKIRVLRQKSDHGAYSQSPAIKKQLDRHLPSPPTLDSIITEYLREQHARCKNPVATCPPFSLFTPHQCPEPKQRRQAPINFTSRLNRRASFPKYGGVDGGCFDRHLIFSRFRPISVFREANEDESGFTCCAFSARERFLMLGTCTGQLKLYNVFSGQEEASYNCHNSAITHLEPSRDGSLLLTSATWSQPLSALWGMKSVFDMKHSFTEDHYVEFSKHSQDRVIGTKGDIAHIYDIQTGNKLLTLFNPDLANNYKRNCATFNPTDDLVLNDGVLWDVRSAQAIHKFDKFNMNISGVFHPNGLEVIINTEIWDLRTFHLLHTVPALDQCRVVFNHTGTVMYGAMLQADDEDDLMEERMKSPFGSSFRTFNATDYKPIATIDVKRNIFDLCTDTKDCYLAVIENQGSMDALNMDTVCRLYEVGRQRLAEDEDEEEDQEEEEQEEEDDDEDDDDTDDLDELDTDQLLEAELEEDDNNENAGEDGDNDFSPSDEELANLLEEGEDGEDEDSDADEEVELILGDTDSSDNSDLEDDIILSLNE"}
{"target": "DCAF1", "temperature": "68.21 °C", "SYPRO Orange fluorescence [a.u.]": 57800}
{"target": "DCAF1", "temperature": "91.21 °C", "SYPRO Orange fluorescence [a.u.]": 33800}
{"target": "DCAF1", "temperature": "77.01 °C", "SYPRO Orange fluorescence [a.u.]": 48000}
{"target": "WDR5", "temperature": "25.4 °C", "SYPRO Orange fluorescence [a.u.]": 12900}
{"target": "DCAF1", "temperature": "27.6 °C", "SYPRO Orange fluorescence [a.u.]": 8920}
{"target": "DCAF1", "temperature": "50.6 °C", "SYPRO Orange fluorescence [a.u.]": 15700}
{"target": "WDR5", "temperature": "73.01 °C", "SYPRO Orange fluorescence [a.u.]": 21200}
{"target": "WDR5", "temperature": "73.61 °C", "SYPRO Orange fluorescence [a.u.]": 22500}
{"target": "DCAF1", "temperature": "57.41 °C", "SYPRO Orange fluorescence [a.u.]": 28800}
{"target": "WDR5", "temperature": "55.81 °C", "SYPRO Orange fluorescence [a.u.]": 16800}
{"target": "WDR5", "temperature": "34.6 °C", "SYPRO Orange fluorescence [a.u.]": 13200}
{"note": "Some of these lines once more (study 2):"}
{"target": "MAPK3 (Homo sapiens, UniProt P27361)", "effect on": "binding", "technique": "competition with immobilised ligand", "remaining binding": "93%"}
{"target": "ULK2 (Homo sapiens, UniProt Q8IYT8)", "effect on": "binding", "technique": "competition with immobilised ligand", "remaining binding": "72%"}
{"target": "NTRK1 (Homo sapiens, UniProt P04629)", "effect on": "kinase binding", "technique": "KINOMEscan", "baseline": "DMSO control", "remaining binding": "64%"}
